Results pooled from the literature.
Every numbered part comes from another study and shows a few of its results, in no order. Substitutions count along the parent as printed.

Series 1
Substitution: E147G
Target: ABI1, truncated, D143A, DHFR fusion (Arabidopsis thaliana)
Method: DHFR PCA, deep sequencing
Sample: yeast
Setting: methotrexate growth selection, single substitutions
Relative to: wild-type fitted maximum
Direction: higher = stronger binding
Starting sequence: PYL1, truncated, DHFR fusion (Arabidopsis thaliana); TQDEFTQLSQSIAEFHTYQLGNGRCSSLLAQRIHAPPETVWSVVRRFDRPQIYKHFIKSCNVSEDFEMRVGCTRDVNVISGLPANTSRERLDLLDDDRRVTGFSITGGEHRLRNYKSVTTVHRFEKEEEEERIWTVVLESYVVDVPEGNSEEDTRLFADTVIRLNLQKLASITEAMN
It gave -2.17% for “relative binding score” (with: (+)-ABA 0.0091 µM).
The “relative binding score” was 87.4% (with: (+)-ABA 200 µM).
The “relative binding score” was -1.37% (with: (+)-ABA 0.11 µM).
It gave -15.7% for “relative binding score” (with: (+)-ABA 0.39 µM).
with: (+)-ABA 1.4 µM — “relative binding score”: -0.321%.
It gave 71.6% for “relative binding score” (with: (+)-ABA 58 µM).

Series 2
Target: RNA binding protein fox-1 homolog 2, RRM domain, GST-SBP tag (RBFOX2, Homo sapiens, UniProt O43251-10, residues 100-194)
Method: RNA Bind-n-Seq
Molecule type: RNA
Sample: in vitro
Tested at: 365 nM
Setting: natural RNA segment, single round, ends assumed
Relative to: no-protein control
Direction: higher = stronger binding
Construct (chain): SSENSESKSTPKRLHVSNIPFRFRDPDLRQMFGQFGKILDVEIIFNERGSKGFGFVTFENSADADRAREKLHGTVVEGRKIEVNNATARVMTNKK
For `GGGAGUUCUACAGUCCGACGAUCGACACAGUGCACACUUAGACAUGGCUCAGCACCGCGGGUGGUAGUAGUUCAAGGAGAAACCUGUCCAAGUUGAUGCCAAAGAUUUACUGCCAACCUUUUCCCCCCAAGGGUGGAAUUCUCGGGUGCCAA`, “RBNS enrichment (R)” read 0.541.
For `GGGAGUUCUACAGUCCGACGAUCCCAUGGCUUUUACACUGUCAACGGCUUUACCUACUUUUUAAAAUUAAGUCUUUGAUUUUAUGAUUUAUUUCUGUAUGGCACUGGAUAAAAAUAUUAUUAAAACAUUUCUGUGGAAUUCUCGGGUGCCAA`, “RBNS enrichment (R)” read 0.653.
`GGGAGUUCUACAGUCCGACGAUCGGCUGGAGUUGCUGUGGGGACUGAUUUUCUGGGUGGGGAAGCAGCCAUCUAUUCUUGCAGCCAUCUCAGCCAGGGUCUAUGUCUUAGGACCUUCCUCCGGCCUUCCAUGAUGGAAUUCUCGGGUGCCAA`: “RBNS enrichment (R)” 0.627.
`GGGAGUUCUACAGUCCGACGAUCCUUGGUGUGAGACAAGGCACAUGCACGGGGUGCUCGGUCCCUCUGUGGGCUGUGCGUGGGUUCACCUGGGGCCUGCUUUUCAGAAGGCAAAGAUAAGCCCGCCAUGCUGGUGGAAUUCUCGGGUGCCAA` — result for “RBNS enrichment (R)”: 1.12.
Under “RBNS enrichment (R)”, `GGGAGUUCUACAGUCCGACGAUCGGGGACCCCUGGGCCUGGGGUGCCCUCCUGAUGUCCUCGCCCUGUAUUUCUCCAUCUCCAGUUCUGGACAGUGCAGGUUGCCAAGAAAAGGGACCUAGUUUAGCCAUUGCUGGAAUUCUCGGGUGCCAA` is recorded as 0.865.
`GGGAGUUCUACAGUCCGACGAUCUUUUCGUUUCUAUACAACUUCAUUUCAUACACCUUCUGCCCUUACAGCACCUCAUGGGAUCAGAAAAGAGAAAGAUGUUGGCUCUUGUAAUAAAUGCUUUCUACCCUAUAUGGAAUUCUCGGGUGCCAA` — result for “RBNS enrichment (R)”: 1.86.
Under “RBNS enrichment (R)”, `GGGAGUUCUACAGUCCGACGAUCUAUUAAAAACUCAUGUGGAGGAACUCAAGGAAUGUUUAGAAGACCAAAAGUCCCCAAUGACAGGAACAAAAGCAACCAAUUUUUAACUUUCUCUUCUCAUUCCUGUUUUCUGGAAUUCUCGGGUGCCAA` is recorded as 0.972.
`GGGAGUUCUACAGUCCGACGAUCGUGAGACCUGCUCUUUACAGAUGGUAUUUUGAUAGAUACUGGAGUUUGUCUGUAUUAUAUCUGUGCCCCUUCUUUUAAGAACAAUGUUACAUUAUGUUCCUUUGGAUAAAUGGAAUUCUCGGGUGCCAA`: “RBNS enrichment (R)” 0.329.

Series 3
Target: TEF, bZIP domain (human)
Method: DHFR protein complementation
Sample: yeast
Setting: single substitutions, most at no-binding floor
Relative to: wild-type JUN-FOS pair
Direction: higher = stronger binding
Starting sequence: JUN, bZIP domain (human); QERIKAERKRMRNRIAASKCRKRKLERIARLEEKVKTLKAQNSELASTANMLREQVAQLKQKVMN; partner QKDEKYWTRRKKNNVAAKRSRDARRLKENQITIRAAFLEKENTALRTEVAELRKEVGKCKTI
The binding fitness of `R53Q` is reported as -1.39 natural log.
`N42I` has a binding fitness of -1.49 natural log.
For `A57N`, the binding fitness was -1.5 natural log.
The binding fitness of `V56P` is reported as -1.53 natural log.
For `E54W`, the binding fitness was -1.36 natural log.
With `A57P` the binding fitness was -1.55 natural log.
With `L45D` the binding fitness was -1.34 natural log.
The binding fitness of `R30E` is reported as -1.38 natural log.

Mixed results
Starting sequence: viral docking peptide; CKVKRKLFGSENI; partner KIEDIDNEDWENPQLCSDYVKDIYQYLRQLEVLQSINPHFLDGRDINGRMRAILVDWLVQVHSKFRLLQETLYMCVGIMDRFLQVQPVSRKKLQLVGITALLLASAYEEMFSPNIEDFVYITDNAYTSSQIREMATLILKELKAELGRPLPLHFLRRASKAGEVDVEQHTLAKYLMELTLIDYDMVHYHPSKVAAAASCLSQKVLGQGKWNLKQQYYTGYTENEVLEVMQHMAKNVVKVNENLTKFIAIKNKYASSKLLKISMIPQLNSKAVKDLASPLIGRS
`CAVKRKLFGSENI [K2A]`: “normalised enrichment score” 0.621 (CCNB2, cyclin fold, Cln2 fusion (human); yeast growth competition, sequencing; yeast; weak parent motif; relative to: not given, higher = stronger binding).

A few entries again (series 2):
Under “RBNS enrichment (R)”, `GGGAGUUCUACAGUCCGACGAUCUAUUAAAAACUCAUGUGGAGGAACUCAAGGAAUGUUUAGAAGACCAAAAGUCCCCAAUGACAGGAACAAAAGCAACCAAUUUUUAACUUUCUCUUCUCAUUCCUGUUUUCUGGAAUUCUCGGGUGCCAA` is recorded as 0.972.
`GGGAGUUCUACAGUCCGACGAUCGUGAGACCUGCUCUUUACAGAUGGUAUUUUGAUAGAUACUGGAGUUUGUCUGUAUUAUAUCUGUGCCCCUUCUUUUAAGAACAAUGUUACAUUAUGUUCCUUUGGAUAAAUGGAAUUCUCGGGUGCCAA`: “RBNS enrichment (R)” 0.329.
